Published values from different studies.
Each numbered part is a random draw from the data of one study; scales do not carry over between parts. Changes are numbered by the printed parent chain.

Study 1
Target: RNA binding protein fox-1 homolog 2, RRM domain, GST-SBP tag (RBFOX2, Homo sapiens, UniProt O43251-10, residues 100-194)
Method: RNA Bind-n-Seq
Form: RNA
Matrix: in vitro
Concentration: 365 nM
Notes: natural RNA segment, single round, ends assumed
Relative to: no-protein control
Reading: higher = stronger binding
Residues (chain): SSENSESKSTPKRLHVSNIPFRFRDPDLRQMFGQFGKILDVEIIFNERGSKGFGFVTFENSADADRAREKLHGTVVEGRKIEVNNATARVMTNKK
`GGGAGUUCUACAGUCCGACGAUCAGCGACUGAGCACACCCUCUGCCAGCACCUACUGGGGAAAGGAAAAGCCCCUGGAAAUGCGUGUGACCUGUGAAGUGGUGUAUUGUCACAGUAGCUUAUUUGAACUUGAGUGGAAUUCUCGGGUGCCAA`: “RBNS enrichment (R)” 0.43.
`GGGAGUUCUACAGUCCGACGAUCGCGGGUGUGAGCCAUUGCGCCCAGCCUUGAAGUCAUGUUCUAAAUUGUAUUUGAAUUUGUGCCUCUUUGUUUUUCCCCAAACCAAAGCCCUCAAAUUGUAGUCUCUGUCGUGGAAUUCUCGGGUGCCAA`: “RBNS enrichment (R)” 0.262.
`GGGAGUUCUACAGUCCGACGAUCUACAUGCUUUCUCAUUCAAGAAUUCGUCAUCACGCAUCACAGGCCGCGUCUUUGACGGUGGGUGUCCCAUUUUUAUCCGCUACUCUUUAUUUCAUGGAGUCGUAUCAACGUGGAAUUCUCGGGUGCCAA`: “RBNS enrichment (R)” 0.303.
`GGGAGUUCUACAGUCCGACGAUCGUGCUCCUGCACAGGCUUCUGCACCUCCAAGCACAGCUGAUCUGAUCCAAGGCUGUUGGGCCUCUCAAGAUUUGAGAACCACAAAGCAGGAGGUGAGCAUAUUCUCUUGGUGGAAUUCUCGGGUGCCAA` — result for “RBNS enrichment (R)”: 0.372.
For `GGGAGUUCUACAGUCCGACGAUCUCUAUAUUCCUCUGUCCCGCCCAAACACCAUCUUCACUCCAAGCCUACCACAGAUGCCUGAAGAAGUUCCUCACUAUCUGCAAAUGUGGCUCUCAGGCCCUUCCUGAUGUUGGAAUUCUCGGGUGCCAA`, “RBNS enrichment (R)” read 0.54.
Under “RBNS enrichment (R)”, `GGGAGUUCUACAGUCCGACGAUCUCUAAUGACGGAUAAUUCCUUAACAUUUCUCUCCACCUUAGUACUUUAGGCUAAUUAUACACGUCUGUCUGUGCCAUGAGUAAGUGGACUGUAGUUGGACCAAAAAAACAUGGAAUUCUCGGGUGCCAA` is recorded as 0.516.
`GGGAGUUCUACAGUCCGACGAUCACUUGAAGAAGUGUCCUCAGCAUGUGCAGAGUCUACUACCCAGUACCAGUCGUGAGUCUGCAGGCUCCAGUGUUCUGUAGUAGUGUUUAUGGGCCUUGGGAGUACUUCUCUGGAAUUCUCGGGUGCCAA` — result for “RBNS enrichment (R)”: 3.56.
For `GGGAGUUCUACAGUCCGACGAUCGUAGCGCCGACCGAAGGUGAUUCCAGUUGUAUAUGUCACGCAGCAUUCGAAGGGACUGUGCACGCUCUAAAGAUCACAGUUGCUUCUAAGCCAGAUUUCAUUUCUAUUCUUGGAAUUCUCGGGUGCCAA`, “RBNS enrichment (R)” read 0.314.
`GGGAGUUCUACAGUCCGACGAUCUGCCAAACAUUUUAUUAAGAAAGUAAAGCCCAGAUUUGAAUGGGGGUUUUCCCUAGGCCUUAUAGUAUAGAGGCAUUUGUAAUAUGGAGAAAAUAAUUUUUCUCAUUUAAUGGAAUUCUCGGGUGCCAA` — result for “RBNS enrichment (R)”: 2.2.
For `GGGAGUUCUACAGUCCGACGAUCAUUAGAGUGUCUUUCCACGGAGCCACUCCUCUGACUCAGGGCUCCUGGGUUUUGUAUUCUCUGAGCUGUGCAGGUGGGGAGACUGGGCUGAGGGAGCCUGGCCCCAUGGUUGGAAUUCUCGGGUGCCAA`, “RBNS enrichment (R)” read 0.664.
`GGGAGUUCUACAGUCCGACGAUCUAAGUUUUUGAUUUAUCUUACUUGGUAAAUGAAAUGCAUUAGCUGUCUGCCUUUUCCUUCCCAUCCUCUGCCCAGCCUGUCCACUGUCCCUGCUCCUCCACCCCCUCCCAUGGAAUUCUCGGGUGCCAA` — result for “RBNS enrichment (R)”: 0.892.
For `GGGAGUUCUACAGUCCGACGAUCAAAAACUUGUAAAAUAACUGACCCUCCCUUCCUGUCCGCCCUCUUCCCCUCUAAUGCUCACGCUCCCAACACAAGGUGGGCAGGGAGGCACCAUUCAGGAACCUGGACCAUGGAAUUCUCGGGUGCCAA`, “RBNS enrichment (R)” read 0.491.

Study 2
Target: Fragile X messenger ribonucleoprotein 1, C-terminal low-complexity region (Fmr1, Mus musculus, UniProt P35922)
Method: RNA Bind-n-Seq
Form: RNA
Matrix: in vitro
Concentration: 200 nM
Notes: whole 134-nt RNA, ends assumed
With: 150 mM KCl
Relative to: input library
Reading: higher = stronger binding
`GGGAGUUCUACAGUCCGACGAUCGUCCUGUGCUACACAUCGUAUGUACCGAAUCGGGGUGGGGAAAGGGGAAAAAAAGGGGAAAGUAUUAUGUUACGCCGUUCGGAUCUGCACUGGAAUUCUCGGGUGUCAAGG` has a log2 enrichment of 0.428.
With `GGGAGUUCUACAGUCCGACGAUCAUUAUAGACUUGAUCAAAACACAGGAAAAGGCAACUCCCAGGAACUUUCCGCCACGAUUCCAGGAUGGAUAUUACAGCUGACAGCUUUUCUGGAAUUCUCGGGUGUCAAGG` the log2 enrichment was -0.66.
`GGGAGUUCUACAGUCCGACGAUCGCAGGAAGUAAAAACAAAUGGAAAUGCUUCGGAUAGUGGCAGGGUUGGGGGUUGCUAAGGAAAGGGUGGGAUGGGAGUGGGUAAAGAGUUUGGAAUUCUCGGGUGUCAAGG` gave a log2 enrichment of 0.124.
For `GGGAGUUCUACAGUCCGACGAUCCACAGACAACACGCACCCACACAGACACAGAGGGAAGGGGUUGGGAUGGGGACAGGGUGCACAGCAGGGCGGGGUAGGACCCCAAACCCUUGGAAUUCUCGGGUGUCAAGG`, the log2 enrichment was 1.26.
With `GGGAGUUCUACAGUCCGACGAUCCAAGUCCUGUGCUACACAUCGUAUGUACCGAAUCGGGAAAGGGUGGGUUUUUGGGAAAGUAUUAUGUUACGCCGUUCGGAUCUGCACUUCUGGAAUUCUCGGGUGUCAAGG` the log2 enrichment was 1.07.
For `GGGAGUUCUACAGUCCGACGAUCUUUUUGAAUCAAUUUUUAAAACAUGCCAUUGUGUUUCAGGCUCGCGGGAUUGAUGUGCAACAAGUGUCUUUGGUUAUAAAUUAUGAUCUAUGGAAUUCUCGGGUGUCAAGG`, the log2 enrichment was -0.146.
With `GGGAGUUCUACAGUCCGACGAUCAGUCCUGUGCUACACAUCGUAUGUACCGAAUCGGGGCCCCGGCCCCGGGGCCCCGGGAAAGUAUUAUGUUACGCCGUUCGGAUCUGCACUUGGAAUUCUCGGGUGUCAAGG` the log2 enrichment was -0.249.
With `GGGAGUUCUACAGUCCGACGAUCUAACUUUAGAGGAGGAUCUGAUGGAUAUGGCAGUGGACGUGGAUUUGGGGAUGGCUAUAAUGGGUAUGGAGGAGGACCUGGAGGUAGCAAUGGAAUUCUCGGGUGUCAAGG` the log2 enrichment was 0.29.
The log2 enrichment of `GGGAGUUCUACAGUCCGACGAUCUGGAGAAGGAACGUGAUAAAGAAGUAAGCGAUGAUGAGGCUGAAGAAAAGGAAGACAAAGAAGAAGAAAAAGAAAAAGAAGAGAAAGAGUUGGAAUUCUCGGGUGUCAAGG` is reported as 0.103.
For `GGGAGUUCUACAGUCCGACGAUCUGGCCCUGGUGGCAUGCGGGGAGGAAGAGGUGGCCUCAUGGAUGGUGGUGGUCCCGGUGGAAUGUUCAGAGGUGGCCGUGGUGGAGACAGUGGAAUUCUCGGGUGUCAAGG`, the log2 enrichment was 0.349.

Study 3
Target: NFE2L3, bZIP domain (human)
Method: DHFR protein complementation
Matrix: yeast
Notes: single substitutions, most at no-binding floor
Relative to: wild-type JUN-FOS pair
Reading: higher = stronger binding
Parent: JUN, bZIP domain (human); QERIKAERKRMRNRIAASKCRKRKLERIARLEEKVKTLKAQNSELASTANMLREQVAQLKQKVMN; partner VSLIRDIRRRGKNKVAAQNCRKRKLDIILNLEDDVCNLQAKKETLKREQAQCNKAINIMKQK
The binding fitness of `R30G` is reported as -1.35 natural log.
`A46W` has a binding fitness of -1.6 natural log.
For `Q41K`, the binding fitness was -1.27 natural log.
`T48F` has a binding fitness of -1.28 natural log.
For `S43N`, the binding fitness was -1.16 natural log.
The binding fitness of `N42G` is reported as -1.54 natural log.
The binding fitness of `L52T` is reported as -1.51 natural log.
For `S47E`, the binding fitness was -1.61 natural log.
With `N42Q` the binding fitness was -1.49 natural log.
`K39M` gave a binding fitness of -1.39 natural log.
The binding fitness of `E54R` is reported as -1.54 natural log.
The binding fitness of `L52C` is reported as -1.39 natural log.
For `A29F`, the binding fitness was -1.29 natural log.

Study 4
Target: ABI1, truncated, D143A, DHFR fusion (Arabidopsis thaliana)
Method: DHFR PCA, deep sequencing
Matrix: yeast
Notes: methotrexate growth selection, single substitutions
With: (+)-ABA 2500 µM
Relative to: wild-type fitted maximum
Reading: higher = stronger binding
Parent: PYL1, truncated, DHFR fusion (Arabidopsis thaliana); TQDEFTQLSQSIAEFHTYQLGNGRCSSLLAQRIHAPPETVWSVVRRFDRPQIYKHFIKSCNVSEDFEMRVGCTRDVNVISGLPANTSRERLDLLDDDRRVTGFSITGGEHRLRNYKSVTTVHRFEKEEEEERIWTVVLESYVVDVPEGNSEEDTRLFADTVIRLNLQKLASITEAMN
`G148R` — result for “relative binding score”: 90.3%.
For `A30Q`, “relative binding score” read 98.9%.
For `S9P`, “relative binding score” read 96.3%.
Under “relative binding score”, `A84G` is recorded as 90.5%.
`Q19T` — result for “relative binding score”: 99%.
Under “relative binding score”, `K116D` is recorded as 39%.
`P83H`: “relative binding score” 59.9%.
`S80K`: “relative binding score” 85%.
For `H122D`, “relative binding score” read 95.3%.

Study 5
Target: CCNE2, cyclin fold, Cln2 fusion (human)
Method: yeast growth competition, sequencing
Matrix: yeast
Notes: weak parent motif
Relative to: not given
Reading: higher = stronger binding
Parent: CDC6 docking peptide (human); TLKGRRLVFDNQL
`F9V` — result for “normalised enrichment score”: -0.016.
For `R6W`, “normalised enrichment score” read -0.255.
For `R5G`, “normalised enrichment score” read 0.863.
For `K3I`, “normalised enrichment score” read 1.26.
`L7T`: “normalised enrichment score” 0.285.
For `L2H`, “normalised enrichment score” read 0.0673.
Under “normalised enrichment score”, `L2P` is recorded as 0.574.
For `G4H`, “normalised enrichment score” read 0.362.
For `N11L`, “normalised enrichment score” read 0.1.
`F9K`: “normalised enrichment score” 1.73.
For `K3C`, “normalised enrichment score” read 0.591.
`D10E` — result for “normalised enrichment score”: -0.528.
For `N11V`, “normalised enrichment score” read 0.148.
For `G4P`, “normalised enrichment score” read 1.48.
`F9G` — result for “normalised enrichment score”: -0.278.
Under “normalised enrichment score”, `V8S` is recorded as 0.298.
Under “normalised enrichment score”, `L7M` is recorded as 0.473.

Repeated from above (study 5):
Under “normalised enrichment score”, `L2P` is recorded as 0.574.
For `G4H`, “normalised enrichment score” read 0.362.
For `N11L`, “normalised enrichment score” read 0.1.
`F9K`: “normalised enrichment score” 1.73.
For `K3C`, “normalised enrichment score” read 0.591.
`D10E` — result for “normalised enrichment score”: -0.528.
For `N11V`, “normalised enrichment score” read 0.148.
